Assay results pooled from the literature.
Compare with care: the assays were run in different laboratories. ± marks the error that the study gave.

Structure (SMILES) | target or system | assay | system | setting | how to read | measurement | value
CN(C)CCSC(=S)N1CCN(C(=O)/C=C/c2coc3ccc(F)cc3c2=O)CC1 | tomato spotted wilt virus | viral infection, half-leaf method | Nicotiana glutinosa | 500 µg/mL | – | protective effect | 64.3 ± 4.3%
COc1ccc(C2CC(c3ccc(C)cc3)=Nc3ccccc3S2)cc1OC (stereo not shown) | – | – | Wistar rat, STZ-induced diabetes, serum | 10 mg/kg, 28 days | – | AST (SGOT) | 23.9 ± 2.11 IU/L
Oc1cc(C(F)(F)F)ccc1-c1nc2c(C(F)(F)F)cc(C(F)(F)F)cc2[nH]1 | Klebsiella pneumoniae | colistin potentiator | KP H2, colistin-resistant | 5 µM | – | colistin MIC | 2 µg/mL
O=Cc1c(O)ccc2ccccc12 | HUVEC | RNA sequencing, refers to: PPP1R15A | – | 75 µM, 24 h | relative to: DMSO | log2 fold change | 2.47
CC/C=C\C/C=C\C/C=C\C/C=C\C/C=C\CCCCOC(CC)C(=O)O (stereo not shown) | – | – | APOE*3Leiden.CETP mice, high-fat/cholesterol diet | dose not given, 20 weeks | relative to: control | hepatic free fatty acids | decreased
O=C(CCCN1C(=O)c2cccc3cccc(c23)C1=O)NO | Cryptosporidium parvum | parasite growth | HCT-8 | 5 µM, 48 h | – | inhibition | 67.6 ± 10.4%
CCN(CC)CCCSC(=S)N1CCN(C(=O)/C=C/c2coc3ccc(OC)cc3c2=O)CC1 | tomato spotted wilt virus | viral infection, half-leaf method | Nicotiana glutinosa | 500 µg/mL | – | curative effect | 59.6 ± 3.8%
COc1ccc(C2CC(c3ccc(C)cc3)=Nc3ccccc3S2)cc1 (stereo not shown) | – | – | Wistar rat, STZ-induced diabetes | oral, 20 mg/kg once daily, day 28 | – | body weight | 183 ± 4.68 g
COc1ccc2occ(/C=C/C(=O)N3CCN(C(=S)SCCN(C)C)CC3)c(=O)c2c1 | tomato spotted wilt virus | viral infection, half-leaf method | Nicotiana glutinosa | 500 µg/mL | – | curative effect | 60.7 ± 3%
Oc1ccc(C(F)(F)F)cc1-c1nc2c(Cl)cc(Cl)cc2[nH]1 | Klebsiella pneumoniae | colistin potentiator | KP C3, colistin-resistant | 5 µM | – | colistin MIC | 0.25 µg/mL
Cc1cc(O)c(C=O)c2c1C(=O)Oc1c(CO)c(O)c3c(c1O2)C(O)OC3=O (stereo not shown) | – | – | rat male, streptozotocin diabetic | 5 mg/kg, 9 weeks | – | body weight | 172 ± 5.91 g
Cc1cc([C@H](C(=O)N2C[C@H](O)C[C@H]2C(=O)N[C@@H](CC(=O)N2CCC(N3CCC(C#Cc4ccc(C(=O)N[C@H]5C(C)(C)[C@H](Oc6ccc(C#N)c(Cl)c6)C5(C)C)cc4)CC3)CC2)c2ccc(-c3scnc3C)cc2)C(C)C)on1 | MDA-MB-453 | suppression of increase, refers to: WNT7B | – | 24 h | – | effective concentration | 10 nM
COc1ccc2occ(/C=C/C(=O)N3CCN(C(=S)SCCCN(C)C)CC3)c(=O)c2c1 | tomato spotted wilt virus | viral infection, half-leaf method | Nicotiana glutinosa | 500 µg/mL | – | inactivation effect | 74.2%
